Measured values pooled from the literature.
Compare with care: the assays were run in different laboratories. ± gives the spread as reported.

SMILES | target | assay | system | conditions | IC50
O=C([O-])CN1CCN(CC(=O)[O-])CCN(CC(=O)NCCc2ccc3c(c2)C2C=CCC2C(c2cc4c(cc2Br)OCO4)N3)CCN(CC(=O)[O-])CC1.[In+3] (centres unmarked) | GPER1 (Homo sapiens, UniProt Q99527) | ligand displacement, radioligand | – | – | 0.0339 µM
N#C[C@@H]1CCCN1C(=O)CNC(=O)c1ccnc2ccc(/C=C/C(=O)NCc3cn(CCOCCOCCOCCNC(=O)CCCC[C@@H]4SC[C@@H]5NC(=O)N[C@@H]54)nn3)cc12 | PREP (Homo sapiens, UniProt P48147) | enzyme activity, inhibitor, fluorescence | – | with preincubation | > 100 µM
Cc1cc(C)c(S(=O)(=O)Nc2ccc3c(c2)nc(CCCCCCCNC(=O)CCCCCN2CCN(c4ccc5c(c4)C(=O)N(C4CCC(=O)NC4=O)C5=O)CC2)n3Cc2ccccc2)c(C)c1 (centres unmarked) | NR1I2 (Homo sapiens, UniProt O75469) | ligand displacement, TR-FRET | – | – | 1.21 µM
O=C(O)c1c(O)c(/N=N/c2ccccc2)cc2ccccc12 | GLO1 (Homo sapiens, UniProt Q04760) | enzyme activity, inhibitor | – | – | 12.5 µM
C[C@H](NC(=O)[C@H](CC(=O)NCC(C)(C)C)NC(=O)C(=O)c1c[nH]c2ccccc12)C(=O)NCc1ccc(F)cc1F | Proteasome component C5/PSMB8 (Homo sapiens, UniProt P20618+P28062) | inhibitor | – | – | 0.0011 µM
CC(C)(C)NCCCNC(=O)c1ccnc(Br)c1 | Lethal(3)malignant brain tumor-like protein 1 (Homo sapiens, UniProt Q9Y468) | methyl-lysine reader binding, inhibitor, AlphaScreen | – | – | > 100 µM
CCOc1cncc(-c2ccc(NC(=O)C3(c4ccnc(NS(=O)(=O)C5CC5)n4)CCOCC3)nc2)n1 | Ctps1 (Mus musculus, UniProt P70698) | enzyme activity, inhibitor, mass spectrometry | – | – | 0.0095 µM
N=C(Cc1ccccc1)NCCC[C@H](N)C(=O)O | Nos2 (Mus musculus, UniProt P29477) | enzyme activity, inhibitor | – | pH 7.4 | 5330 µM
COc1ccccc1-c1ccc(-c2cn(C(=O)N3CCCCC3Cc3ccccc3)nn2)cc1 (centres unmarked) | Diacylglycerol lipase-beta (Homo sapiens, UniProt Q8NCG7) | enzyme activity in cells, inhibitor | – | – | 0.38 µM
C=C(NC(=O)C(=C)NC(=O)c1csc(C2=NC3c4csc(n4)C4NC(=O)c5csc(n5)C(C(C)(O)C(C)O)NC(=O)C5CSC(=N5)C(=CC)NC(=O)C(C(C)C)NC(=O)c5csc(n5)C3(CC2)NC(=O)C(C)NC(=O)C(=C)NC(=O)C(C)NC(=O)C(C(C)CC)NC2C=Cc3c(C(C)O)cc(nc3C2O)C(=O)OC4C)n1)C(N)=O (centres unmarked) | PSMB5 (Homo sapiens, UniProt P28074) | chymotrypsin-like activity, inhibitor | purified 20S proteasome | 15 min preincubation, 37 °C, with: Suc-Leu-Leu-Val-Tyr-AMC substrate | 5.38 ± 0.97 µM
CCN(CC)C(=O)c1ccc(-c2cc(NCCCN3CCCCC3)c3ccccc3n2)cc1 | Low molecular weight phosphotyrosine protein phosphatase, isoform A (Mus musculus, UniProt Q9D358) | enzyme activity, inhibitor | – | with: OMFP | 0.8 µM
N[C@@H](Cc1c[nH]c2ccc(OCc3cccc(-c4cccs4)c3)cc12)C(=O)O | SLC7A5 (Homo sapiens, UniProt Q01650) | transporter uptake, inhibitor, radiometric | – | – | 13 µM
CCCCCC(O)/C=C/C=O (centres unmarked) | Mitogen-activated protein kinase kinase kinase 20, Cys22 (MAP3K20, Homo sapiens, UniProt Q9NYL2) | cysteine probe labelling, competitive isoTOP-ABPP | MDA-MB-231 proteome | – | 6 to 23 µM
CC(C)Sc1cccc(O)c(=O)c1O | Ribonuclease HI (rnhA, Escherichia coli, UniProt P0A7Y4) | enzyme activity, inhibitor | – | – | 2.4 µM

Excerpt of the above:
SMILES | target | assay | system | conditions | IC50
Cc1cc(C)c(S(=O)(=O)Nc2ccc3c(c2)nc(CCCCCCCNC(=O)CCCCCN2CCN(c4ccc5c(c4)C(=O)N(C4CCC(=O)NC4=O)C5=O)CC2)n3Cc2ccccc2)c(C)c1 (centres unmarked) | NR1I2 (Homo sapiens, UniProt O75469) | ligand displacement, TR-FRET | – | – | 1.21 µM
O=C(O)c1c(O)c(/N=N/c2ccccc2)cc2ccccc12 | GLO1 (Homo sapiens, UniProt Q04760) | enzyme activity, inhibitor | – | – | 12.5 µM
